{"data": "Literature values that unrelated publications cite", "CSF1R autoinhibited": "Macrophage colony-stimulating factor 1 receptor, autoinhibited (CSF1R, Homo sapiens, UniProt P07333)", "note": "Numbers after ± are the reported error."}
{"SMILES": "CC1=CC(=O)CC(C)(C)C1=O", "target or system": "Old Yellow Enzyme 1", "test": "substrate", "quantity": "conversion", "value": "88 to 99%"}
{"SMILES": "Cc1c(CN2CCN(C(=O)[C@H](C)O)CC2)sc2c(N3CCOCC3)nc(-c3cnc(N)nc3)nc12", "target or system": "CSF1R autoinhibited", "test": "KinomeScan competition binding", "setting": "10 µM", "quantity": "remaining binding", "value": "19%"}
{"SMILES": "Nc1ncnc2c1ncn2[C@@H]1O[C@H](COP(=O)(O)OP(=O)(O)OP(=O)(O)O)[C@@H](O)[C@H]1O", "target or system": "P2X purinoceptor 2 (P2RX2, Homo sapiens, UniProt Q9UBL9)", "test": "agonist", "setting": "0.2 µM", "quantity": "activation", "value": "< 10%"}
{"SMILES": "COc1c(N2C[C@@H]3CCCN[C@@H]3C2)c(F)cc2c(=O)c(C(=O)O)cn(C3CC3)c12", "target or system": "UGT1A9 (Homo sapiens, UniProt O60656)", "test": "substrate", "quantity": "Km", "value": "2100 µM"}
{"SMILES": "CC1(C)S[C@@H]2[C@H](NC(=O)[C@H](N)c3ccccc3)C(=O)N2[C@H]1C(=O)O", "target or system": "Escherichia coli", "test system": "clinical isolate RKI-No_583/16", "quantity": "MIC", "value": "> 16 µg/mL"}
{"SMILES": "C[N+](C)(C)CC(=O)O", "target or system": "Methyl-accepting chemotaxis protein, ligand-binding domain (Pectobacterium atrosepticum, UniProt Q6D515)", "test": "isothermal titration calorimetry", "setting": "concentration not given", "quantity": "binding enthalpy (ΔH)", "value": "-1.6 ± 0.2 kcal/mol"}
{"SMILES": "Cc1c2ccccc2cc2c1ccc1ccccc12", "target or system": "Ahr (Rattus norvegicus, UniProt P41738)", "setting": "50% effect level", "how to read": "baseline: benzo[a]pyrene", "quantity": "relative potency", "value": 1.4}
{"SMILES": "COc1cc2nc(N3CCN(C(=O)c4ccco4)CC3)nc(N)c2cc1OC", "target or system": "Adra1a (Rattus norvegicus, UniProt P43140)", "test": "binding", "quantity": "Hill coefficient", "value": 0.9}
{"SMILES": "COc1ccn2c(c1)nc1c2c(=O)[nH]c(=O)n1Cc1ccccc1", "target or system": "ADORA2A (Homo sapiens, UniProt P29274)", "setting": "10 µM, with: [3H]ZM241385", "quantity": "radioligand displacement", "value": "10%"}
{"SMILES": "Cc1ccc2cccc(NC(=O)c3ccc(OC(C)C)cc3)c2n1", "target or system": "SERCA2a", "setting": "concentration not given", "quantity": "ATPase activity", "value": "increased"}
{"SMILES": "Nc1ncnc2c1ncn2[C@@H]1O[C@H](COP(=O)(O)OP(=O)(O)O)[C@@H](O)[C@H]1O", "target or system": "MiD51", "setting": "concentration not given", "quantity": "binding", "value": "binds"}
{"SMILES": "CC(C)(O/N=C(\\C(=O)N[C@@H]1C(=O)N2C(C(=O)[O-])=C(C[N+]3(CCNC(=O)c4ccc(O)c(O)c4Cl)CCCC3)CS[C@H]12)c1csc(N)n1)C(=O)O", "target or system": "KPC-33", "test": "hydrolysis by enzyme, substrate", "quantity": "Km", "value": "3 µM"}
{"SMILES": "Nc1cc(C(F)(F)F)c(-c2nc(N3CCOCC3)nc(N3CCOCC3)n2)cn1", "target or system": "CSF1R autoinhibited", "test": "KinomeScan competition binding", "setting": "10 µM", "quantity": "remaining binding", "value": "2.8%"}
{"SMILES": "CCN(c1cc(-c2ccc(CN3CCOCC3)cc2)cc(C(=O)NCc2c(C)cc(C)[nH]c2=O)c1C)C1CCOCC1", "target or system": "EHMT2 (Homo sapiens, UniProt Q96KQ7)", "test": "enzyme activity, inhibitor", "setting": "1 µM", "quantity": "inhibition", "value": "7 ± 3%"}
{"SMILES": "C=CC(=O)N1CCC(C(=O)NCC(=O)N2CCN(c3nc(-c4cnc(N)nc4C(F)F)nc(N4CCOCC4)n3)CC2)CC1", "target or system": "PIK3CG (Homo sapiens, UniProt P48736)", "test": "kinase activity", "setting": "1 µM", "quantity": "remaining activity", "value": "0.1%"}
{"SMILES": "C[C@H](Cc1ccccc1)Nc1ncnc2c1ncn2[C@@H]1O[C@H](CO)[C@@H](O)[C@H]1O", "target or system": "ADORA1 (Homo sapiens, UniProt P30542)", "setting": "historical reference value", "quantity": "Hill coefficient", "value": 0.9}
{"SMILES": "CNC(C)C1CCC(N)C(OC2C(N)CC(N)C(OC3OCC(C)(O)C(NC)C3O)C2O)O1 (stereo not drawn)", "target or system": "Escherichia coli", "test system": "clinical isolate RKI-No_607/16", "quantity": "MIC", "value": "> 8 µg/mL"}
{"SMILES": "C[N+]1(C)CCC(OC(=O)C(c2ccccc2)c2ccccc2)CC1.[I-]", "target or system": "CHRM1 (Homo sapiens, UniProt P11229)", "setting": "historical reference value", "quantity": "Hill coefficient", "value": 1}
{"SMILES": "Nc1cc(C(F)(F)F)c(-c2nc(N3CCOCC3)nc(N3CCOCC3)n2)cn1", "target or system": "CLK4 (Homo sapiens, UniProt Q9HAZ1)", "test": "enzyme activity", "setting": "10 µM", "how to read": "baseline: untreated", "quantity": "remaining activity", "value": "32%"}
{"SMILES": "COc1ccc(C[C@H](N)C(=O)N[C@H]2[C@@H](O)[C@H](n3cnc4c(N(C)C)ncnc43)O[C@@H]2CO)cc1", "target or system": "Aminopeptidase N (ANPEP, Homo sapiens, UniProt P15144)", "test": "enzyme activity", "setting": "10 µM", "quantity": "inhibition", "value": "15.7%"}
{"SMILES": "COc1cc(O)c(CC=C(C)C)c(O)c1C(=O)/C=C/c1ccc(O)cc1", "target or system": "Xenopus laevis deiodinase type 3", "setting": "mean across 12 runs", "quantity": "Hill slope", "value": "-1.01 ± 0.12"}
{"SMILES": "Cc1nc(NC(=O)N2CCC[C@H]2C(N)=O)sc1-c1ccnc(C(C)(C)C(F)(F)F)c1", "target or system": "CSF1R autoinhibited", "test": "KinomeScan competition binding", "setting": "10 µM", "quantity": "remaining binding", "value": "98%"}
{"SMILES": "O=C(Nc1nc2ccccc2[nH]1)c1ccccc1", "target or system": "luciferase", "setting": "PubChem AID 773", "quantity": "activity", "value": "0.2 µM"}
{"SMILES": "Cc1cc(NC(=O)c2cccc(NC(=O)/C=C/CN(C)C)c2)ccc1Nc1nccc(-c2cccnc2)n1", "target or system": "CDK7 (Homo sapiens, UniProt P50613)", "test": "enzyme activity, inhibitor", "setting": "1 µM", "how to read": "baseline: vehicle", "quantity": "remaining activity", "value": "39%"}
{"note": "Some of these lines once more:"}
{"SMILES": "CCN(c1cc(-c2ccc(CN3CCOCC3)cc2)cc(C(=O)NCc2c(C)cc(C)[nH]c2=O)c1C)C1CCOCC1", "target or system": "EHMT2 (Homo sapiens, UniProt Q96KQ7)", "test": "enzyme activity, inhibitor", "setting": "1 µM", "quantity": "inhibition", "value": "7 ± 3%"}
{"SMILES": "C=CC(=O)N1CCC(C(=O)NCC(=O)N2CCN(c3nc(-c4cnc(N)nc4C(F)F)nc(N4CCOCC4)n3)CC2)CC1", "target or system": "PIK3CG (Homo sapiens, UniProt P48736)", "test": "kinase activity", "setting": "1 µM", "quantity": "remaining activity", "value": "0.1%"}
